Experimental data of several laboratories.
Every numbered part comes from another study and shows a few of its results, in no order. Substitutions count along the parent as printed.

Study 1
Target: CCNE1, cyclin fold, Cln2 fusion (human)
Method: yeast growth competition, sequencing
Matrix: yeast
Notes: weak parent motif
Baseline: not given
Reading: higher = stronger binding
Endpoint: normalised enrichment score
Parent: MASTL docking peptide (human); PMIAKNLMCELDE
E10L: 0.534
A4I: 0.182
K5D: 0.348
D12I: -0.443
A4E: -0.0637
E10G: -0.0209
L7M: -0.573
D12S: -0.0127
K5H: -0.438
N6W: 0.191
L11N: -0.177
E10S: -0.0283
D12C: 0.191
M8Y: -0.274
M2T: 0.00443
L11F: -0.0691
D12H: 0.215
M8D: -0.00418
N6I: 0.532
D12F: 0.396

Study 2
Target: Sal-like protein 4, full length isoform B (SALL4, Homo sapiens, UniProt Q9UJQ4-2, residues 1-616)
Method: universal PBM
Form: double-stranded DNA, one strand shown
Matrix: in vitro
Concentration: not given
Notes: 8-mer, flanks averaged, mean of replicates
Reading: higher = stronger binding
Endpoint: E-score
AACGTGCA: 0.0387
AGCCTGGA: -0.319
AACGCGCA: -0.0611
ATTAGCAA: 0.237
CACTCTTC: -0.0465
TATGCGGA: 0.146
AAGAAACT: 0.0462
GACTGGCC: -0.316
CAAAAGAG: 0.0728
CATCAGGA: 0.0617
CCTCTTCG: -0.116
AGCGAGAT: -0.0682
CATTGGCC: -0.175
AGCCTATG: 0.0824
ACGGTCCA: -0.257
ACCGTGTC: -0.159

Study 3
Target: Ras GTPase-activating protein-binding protein 1, RRM domain (G3BP1, Homo sapiens, UniProt Q13283)
Sequence of UniProt Q13283 (whole entry, looked up): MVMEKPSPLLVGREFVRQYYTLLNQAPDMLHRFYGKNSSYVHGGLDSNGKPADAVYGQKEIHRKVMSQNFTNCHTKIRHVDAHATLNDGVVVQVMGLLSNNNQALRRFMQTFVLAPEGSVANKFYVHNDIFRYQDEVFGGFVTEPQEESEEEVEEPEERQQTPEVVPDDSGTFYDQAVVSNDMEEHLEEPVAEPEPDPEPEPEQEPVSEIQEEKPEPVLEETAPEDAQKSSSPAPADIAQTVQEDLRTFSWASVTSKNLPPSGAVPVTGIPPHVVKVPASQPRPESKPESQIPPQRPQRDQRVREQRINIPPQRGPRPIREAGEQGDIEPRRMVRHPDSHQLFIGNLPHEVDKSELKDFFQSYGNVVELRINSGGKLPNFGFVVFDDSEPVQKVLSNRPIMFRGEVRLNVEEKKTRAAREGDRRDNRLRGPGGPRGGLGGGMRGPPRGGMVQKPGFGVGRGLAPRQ
Method: RNA Bind-n-Seq
Form: RNA
Matrix: in vitro
Concentration: 1 µM
Notes: whole 134-nt RNA, ends assumed
Together with: 150 mM KCl
Baseline: input library
Reading: higher = stronger binding
Endpoint: log2 enrichment
Shared flanks, not repeated: GGGAGUUCUACAGUCCGACGAUC … UGGAAUUCUCGGGUGUCAAGG
UAACUUUAGAGGGGGAUCUGAUGGAUAUGGCAGUGGACGUGGAUUUGGGGAUGGCUAUAAUGGGUAUGGAGGAGGACCUGGAGGUGGCAA: -0.539
UCAAGUCCUGUGCUACACAUCGUAUGUACCGAAUCGGGAGGGUUUUUGGGUGGGAAAGUAUUAUGUUACGCCGUUCGGAUCUGCACUUCC: 0.663
CCUGUGCUACACAUCGUAUGUACCGAAUCGGGGCCCCCCGGCCCCCCGGGGCCCCCCGGGAAAGUAUUAUGUUACGCCGUUCGGAUCUGC: -0.704
UGGGAGGUGGAUUUUGUUUAUUUUUUUAGCUCAUUUCCAGGGGUGGGGAUUUUUUUUUAAUAUGUGUCAUGAAUAAAGUUGUUUUUGAAA: 1.4
CAAGUCCUGUGCUACACAUCGUAUGUACCGAAUCGGGGUUUUGGUUUUGGUUUUGGAAAGUAUUAUGUUACGCCGUUCGGAUCUGCACUU: -0.507
UCAAGUCCUGUGCUACACAUCGUAUGUACCGAAUCGGAAAAAGGUUUGGUUUGGAAAGUAUUAUGUUACGCCGUUCGGAUCUGCACUUCC: -0.207
GCAGGAAGUAAAAACAAAUGGAAAUGCUUCGGAUAGUGGCAGGGGUGGGGGUUGCUAAGGAAAGGAUGGGAUGGGAGUGGGUAAAGAGUU: 1.11
AAGUCCUGUGCUACACAUCGUAUGUACCGAAUCGGGGUUUGGGUUUGGGUUUGGGGAAAGUAUUAUGUUACGCCGUUCGGAUCUGCACUU: 0.593
CUGUGCUACACAUCGUAUGUACCGAAUCGGGCCCCCCCGGGGCCCCCCCGGCCCCCCCGGGGAAAGUAUUAUGUUACGCCGUUCGGAUCU: -0.616
AAGUCCUGUGCUACACAUCGUAUGUACCGAAUCGGUUUUUGGAAAAAAAGGUUUGGAAAGUAUUAUGUUACGCCGUUCGGAUCUGCACUU: -0.371

Study 4
Target: RING finger protein unkempt homolog, zinc fingers 1-6, GST-SBP tag (UNK, Homo sapiens, UniProt Q9C0B0, residues 30-357)
Method: RNA Bind-n-Seq
Form: RNA
Matrix: in vitro
Concentration: not given
Notes: RNA with constant flanks, human and mouse sites, ends assumed
Baseline: input RNA pool
Reading: higher = stronger binding
Endpoint: bound/input enrichment
Shared flanks, not repeated: GGGAGUUCUACAGUCCGACGAUC … CAACAGAGGAUUGAGCAUCA
Residues (chain): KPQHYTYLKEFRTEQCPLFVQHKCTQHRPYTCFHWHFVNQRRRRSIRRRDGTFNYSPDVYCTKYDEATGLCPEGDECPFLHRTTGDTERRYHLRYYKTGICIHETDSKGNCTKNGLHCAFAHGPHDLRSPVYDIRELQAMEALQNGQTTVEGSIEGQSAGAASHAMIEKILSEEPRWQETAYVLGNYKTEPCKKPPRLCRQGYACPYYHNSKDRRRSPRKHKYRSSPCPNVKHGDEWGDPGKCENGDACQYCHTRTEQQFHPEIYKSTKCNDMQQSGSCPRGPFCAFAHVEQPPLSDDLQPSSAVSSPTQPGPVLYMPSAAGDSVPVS
GGGCGGACCCGGUGGGCCGACCUGAAGAGUACUCUGGUCUUUAUCACUUUCACUUACGGUUUUUCACCUGUGCUAAAGACCCUGACGGAGUCUGUCAGUACAGACACUAUCUACGCCAUG: 0.112 ratio
GAGAAGAGCAGCAAGAAGAAGACCGAGAAGAAACUUGCUGCUCGGGAAGAAGCUAAAUUGUUGGCGGGUUUCAUGGGCGUCAUGAAUAACAUGCGGAAACAGAAAACGUUGUGUGACGUG: 0.239 ratio
UUAUUUUUAAGAAGAUGCCAAUAUAAUUUUUGUAAGAAGGCAGUAACCUUUCAUCAUGAUCAUAGGCAGUUGAAAAAUUUUUACACCUUUUUUUUCACAUUUUACAUAAAUAAUAAUGCU: 9.57 ratio
UUGUGCAGAGCCCAACAUGAGCUUCAUUUCCAAGCUGCCACCUAUCUCUGCCUCCUGCGUAGCAUCCGGAAACAUGUGGCCCUACAUCAGGAAUUUCAUGGCAAGGGAGAUACAACUCGU: 0.107 ratio
CCAUCAGCUUCUGAAGUUCCCGAUAAUAGGGCAUCUGAAGCUUCUCAGGGAUUUCGAUUUCUUAGGCGAAGAUGGGGUUUGUCAUCUCUUAGCCACAAUCAUAGCUCUGAGUCAGAUUCA: 0.195 ratio
UACAAUGUAUUUGUGUAAUUUAUAGAAGUAAAAUCUAGAUGUUGAGACCUGUUUGGUCUAAUAGAUGUGGAUACAGUUUAUUUUACUUGAAAUUUUGUUGUCUACUUUGUGUGUUUAACG: 1.49 ratio
AGCGUCAUGAAGCCAGCAGUGGCCGUGCUAUCCACAGGCUCUGUCUGCUUCCCACUGAACAGACCCAUUCUAGCUUUCUAUCACUCAAAGAACCAAGGUUUUGGAAAGCUGGCAGUGCUU: 0.0511 ratio
AGAGCUGGAAGUGGCCCGGUGCUGUUUCUGCUUUGGUCCAGAUGGAGAAGACACUGAAGAGCAGCAGAACGUCAAGAAGGGACCCAGGGUGAUUUAUGAUGAGAAGAAAGGCACCGUGUA: 0.243 ratio
AAGAUAAACUGUUCCUGAUGGGUAAUUGGGCUGGGUAGGCCUGAAGGCUUCACAGGUUAAUUUUUUGUUGUUGUUUUGGAAGCCCUAUCCCAAACCCAAAGGGAAGACUUCACAUGGAAU: 0.165 ratio
CAGACUGGCAACUGUUUUGUAGCAAGAGCCAUAGGUAGCCUUACUACUUGGGCCUCUUUCUAGUUUUGAAUUAUUUCUAAGCCUUUUGGGUAUGAUUAGAGUGAAAAUGGCAGCCAGCAA: 0.767 ratio
GCAAGAAUUGAUGCUGUGGAUGCGGAGACGGUUCGACGAGUGUGCACCAAGUACAUUCAUGACAAAAGCCCAGCUAUUGCUGCUCUGGGUCCUAUUGAGCGACUACCAGAUUUUAACCAG: 0.219 ratio

Study 5
Target: RNA binding protein fox-1 homolog 2, RRM domain, GST-SBP tag (RBFOX2, Homo sapiens, UniProt O43251-10, residues 100-194)
Method: RNA Bind-n-Seq
Form: RNA
Matrix: in vitro
Concentration: 365 nM
Notes: natural RNA segment, single round, ends assumed
Baseline: no-protein control
Reading: higher = stronger binding
Endpoint: RBNS enrichment (R)
Shared flanks, not repeated: GGGAGUUCUACAGUCCGACGAUC … UGGAAUUCUCGGGUGCCAA
Residues (chain): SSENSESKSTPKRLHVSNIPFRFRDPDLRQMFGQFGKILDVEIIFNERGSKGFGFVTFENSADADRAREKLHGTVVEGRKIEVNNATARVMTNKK
UUCUCCUUAUGUUUAAAUGCACAGGCUUAUGUUUAAAUGAACAGAUGUAAAACACAAGCCAGACAGAUGGCAAAGACUAGACUUGCCCGCAAAGAAAUUGAGUUGAUUAG: 1.71
ACUUCCUAGAGCAUCUGUCCCACUGGGACACAACCACUAAUUUGUCACUGGAACCUCCCUGGGCCUGUCUCAGAUUGGGAUUAACAUAAAAGAGUGGAACUAUCCAAAAG: 0.231
UAAGAAUUUAUAGACGCACUUCCUUACAAAGCUAAGCGUUCAGAGCCAUGGGCUACAGGCCACACCUUAAGAGGACUGUUUACGCAAUAGUGUCCCCUACCCUGUAUAUA: 0.349
AAAAGUGAUUUUUUUAAGGACAGAACUUCUUCCAAAAGAGAGGGAUGGCUUUCCCAGAAGACACUCCUGGCCAUCUGUGGAUUUGUCUGUGCACCUAUUGGCUCUUCUAG: 0.647
GUGUGUGUAUGUAUAUGAUACAUAAUAUCACACACACACAAAGUUCUUUUUAGCUAUUCCUACAUACUUGUGUGUCAGCCCAUGUAUGUAGGUGUGACCGAUUUCAAGCA: 0.369
UGUCUGACAUCCCUGGAGAGGCUACGCUGUUCCAGGUGGCACUGGGAUGCCAGUUGGCAGCUGGAUCCUUCUGUUCACACGACUUGGAACCUUUUGUCCUUUGGGGCUGG: 0.254
AUGUCUUGGUUUUGGUUUAAUACCAAAUUUCUCUUGGUCUUGGUUUAAUACCCGACUCCUCCCAAAUUGAACGAUUAUCUUUGUAUGUCACUCAAAAAUACCAGGUUUCC: 0.438
ACUUGCUGAUUUUCUGGUUGGAGUGUUUUUUUGUAUUGCCAUAGUCCCUUCCCCCUGAAGCAAUAGCCCCUCCCCACCUCCUGCAAUACGCCUUUCCAAUCUUUAUUGGA: 0.461
AUGUGUGUAUUGUAUAUGUGCACCAGCAUCAAACAUUGUGUAUCUGGAAGGAAAGCAGCAUGUUCCAGUUCUAAAAUGCAGUUACCAGACCCAUCACUUUAAAUCCUUAA: 6.93
UCUCUCACUGAAUAAUGUUUACUGUACAGUCUUCCCAAGGUGAUUCCUGCGACUGCAGGCACUGGUCAUUUUCUCAUGUAGCUGUCUUUUCAGUUAUGGUAAACUCUUAA: 0.492
CAGGAGAUUGAGACCAGCCUGACCGUCAUGGCGAAACCCCGUCUAUACUAAAAAUACAAAAAAUAGCCAGGCAUGGUGGCGCACGCCUGUGGUCCCAGCUACUUGGGAGG: 1.05
CUUACCAUUUCCUUGUUUGAGUAAGAGAGUGAAUGGUUCUGAGUGUUUAGGAAGGAUUUGCUUGCUUGCAGCAGAAGUUCUAGGAAAAGCAGGCACCUCCCAAAUAUCUU: 0.318

Some of these lines once more (study 3):
UCAAGUCCUGUGCUACACAUCGUAUGUACCGAAUCGGGAGGGUUUUUGGGUGGGAAAGUAUUAUGUUACGCCGUUCGGAUCUGCACUUCC: 0.663
GCAGGAAGUAAAAACAAAUGGAAAUGCUUCGGAUAGUGGCAGGGGUGGGGGUUGCUAAGGAAAGGAUGGGAUGGGAGUGGGUAAAGAGUU: 1.11
CUGUGCUACACAUCGUAUGUACCGAAUCGGGCCCCCCCGGGGCCCCCCCGGCCCCCCCGGGGAAAGUAUUAUGUUACGCCGUUCGGAUCU: -0.616
CAAGUCCUGUGCUACACAUCGUAUGUACCGAAUCGGGGUUUUGGUUUUGGUUUUGGAAAGUAUUAUGUUACGCCGUUCGGAUCUGCACUU: -0.507
